Results collected from several papers.
Numbered parts are unrelated; each lists some results of a single study. Changes are numbered by the printed parent chain.
Chain of UniProt Q99640 (whole entry, looked up): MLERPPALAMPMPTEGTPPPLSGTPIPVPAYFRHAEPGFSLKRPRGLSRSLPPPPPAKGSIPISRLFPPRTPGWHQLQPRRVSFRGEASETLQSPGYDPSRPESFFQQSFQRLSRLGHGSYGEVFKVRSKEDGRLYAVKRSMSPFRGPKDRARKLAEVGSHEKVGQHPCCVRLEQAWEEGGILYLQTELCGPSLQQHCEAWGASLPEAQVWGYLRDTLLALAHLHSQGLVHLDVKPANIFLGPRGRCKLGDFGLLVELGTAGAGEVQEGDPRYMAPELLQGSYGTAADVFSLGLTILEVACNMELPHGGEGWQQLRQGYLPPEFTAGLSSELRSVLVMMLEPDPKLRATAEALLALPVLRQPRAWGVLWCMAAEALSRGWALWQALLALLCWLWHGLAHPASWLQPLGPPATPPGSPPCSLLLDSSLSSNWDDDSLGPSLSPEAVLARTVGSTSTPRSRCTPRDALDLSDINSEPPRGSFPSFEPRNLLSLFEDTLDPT

Set 1
Target: RING finger protein unkempt homolog, zinc fingers 1-6, GST-SBP tag (UNK, Homo sapiens, UniProt Q9C0B0, residues 30-357)
Chain of UniProt Q9C0B0 (30-357, looked up): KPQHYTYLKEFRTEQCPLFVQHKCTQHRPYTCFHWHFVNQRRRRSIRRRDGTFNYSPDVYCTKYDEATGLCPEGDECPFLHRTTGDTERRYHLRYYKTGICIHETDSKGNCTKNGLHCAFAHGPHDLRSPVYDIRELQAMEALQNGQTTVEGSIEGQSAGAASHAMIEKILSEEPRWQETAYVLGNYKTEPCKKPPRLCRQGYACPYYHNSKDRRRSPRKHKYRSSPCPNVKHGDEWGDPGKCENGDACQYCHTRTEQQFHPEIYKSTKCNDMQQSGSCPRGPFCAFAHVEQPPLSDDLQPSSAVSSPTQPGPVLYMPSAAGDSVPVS
Technique: RNA Bind-n-Seq
Molecule type: RNA
Medium: in vitro
Concentration: not given
Notes: RNA with constant flanks, human-mouse chimeric sites, ends assumed
Relative to: input RNA pool
Direction: higher = stronger binding
All sequences stand within: GGGAGUUCUACAGUCCGACGAUC … CAACAGAGGAUUGAGCAUCA
Strand | bound/input enrichment [ratio]
ACUCAGAGAUCCACCUCCCAAAGUGCUCUGGAGCUCUGUGUGGCCACUCAAUUCUCCUUGAUGGAUAUAUAUUUUUUUUAAUAUGAAUCUUCCUGUUCGUCCAGGGAAGAAAGAUUUGUU | 0.633
AGCACAACCCCAGCAAAGCUCAGGAACCCUUGUACAAGUGAACAAAACUGCACCAGCCCAUUUAGCUACAAAAAUGUGCUUAGUCUUACUAAUAAAGGAGAGUUUUUCAAUGAACUUGUU | 0.621
AAAGAGUGGAUAGAGUGUGCACACGGGAUCGGUGGGACUCGGGCAGAAAAGGAGUGCAAGAUAGAGUUCGAUGACUUCGUAGAGUGUUUGCUUCGGUACAAAACGAUGAGGCGAAUGCAU | 0.351
GCUGAAAAUGAAGAAGAGGCAGCUGAUGUCUGGUACAACCUGGGGCAUGUAGCUGUGGGAAUCGGAGAUACAAACUUGGCCCACCAAUGCUUCAGGCUGGCCCUGGUCCACAACAACCAC | 0.146
GAAAGAGAACUAAAGCAACUAAUAGAGAAGAGGAUUGGCAAAGAGAAUUUCAUAGAGAAACUAGGAUUUUAUUAGCAACAUGAGUUAUAUUCCAGAGCGUCUCAGAAACCCCAGCCAAAC | 9.21
CUUAAUGUUAAUAUUUUUGAAUAAAUGAAGCUAAAAUUUUGCUUUCUGGUACAACACGCAUUAAUAAAAGGUUAAGUUUUGUUUUCCACUGAAGUACGUAAUACUUACUCAGAAAAAAAC | 0.567
AGAAUCUUGGGACUGUUUUACUUAAUUGGUCAUUGGUAGCUUAACAAACAUGGAGAUAAGAUUAGAAAUCUUGACAUCAACAGGUAUUAAGCAGAAAAAACCCUGGCCACGUGUCUCCUG | 0.114
GAGUCGAGCAAACUUGAAACAAUUCGUUAUCUUGCAGCCUCAGUGUUUUUACUUGCCGCGAUAGCAUUGGGGUUUUAUAGGUUCUGGAAGGAGAACUGACGAUGAUGCUGCCGCUGCUGC | 0.182

Set 2
Target: CCNF, cyclin fold, Cln2 fusion (human)
Technique: yeast growth competition, sequencing
Medium: yeast
Notes: strong parent motif
Relative to: not given
Direction: higher = stronger binding
Parent: viral docking peptide; KGVKRKLFAEDSS
Change | normalised enrichment score
L7P | 0.391
V3C | 7.08
D11S | 8.32
A9R | 8.12
D11G | 8.37
D11Y | 8.03
G2W | 8.11
K4Y | 7.14
F8T | 0.468
L7E | 0.497
L7G | 0.221
R5M | 0.633
F8A | 1.51
R5Q | 1.05
K4S | 7.91
S12W | 8.27
L7N | 0.332
G2V | 7.42
G2R | 7.71
G2I | 7.09
K4T | 6.07
F8D | 0.485
D11W | 8.39
K6Y | 3.23
E10T | 7.61

Set 3
Target: Interferon regulatory factor 7, full length, phosphomimetic (IRF7, Homo sapiens, UniProt Q92985, residues 1-503, S471D/S472D/S475D/S476D/S477D/S483D/S484D/S487D)
Chain of UniProt Q92985 (whole entry, unmodified, looked up): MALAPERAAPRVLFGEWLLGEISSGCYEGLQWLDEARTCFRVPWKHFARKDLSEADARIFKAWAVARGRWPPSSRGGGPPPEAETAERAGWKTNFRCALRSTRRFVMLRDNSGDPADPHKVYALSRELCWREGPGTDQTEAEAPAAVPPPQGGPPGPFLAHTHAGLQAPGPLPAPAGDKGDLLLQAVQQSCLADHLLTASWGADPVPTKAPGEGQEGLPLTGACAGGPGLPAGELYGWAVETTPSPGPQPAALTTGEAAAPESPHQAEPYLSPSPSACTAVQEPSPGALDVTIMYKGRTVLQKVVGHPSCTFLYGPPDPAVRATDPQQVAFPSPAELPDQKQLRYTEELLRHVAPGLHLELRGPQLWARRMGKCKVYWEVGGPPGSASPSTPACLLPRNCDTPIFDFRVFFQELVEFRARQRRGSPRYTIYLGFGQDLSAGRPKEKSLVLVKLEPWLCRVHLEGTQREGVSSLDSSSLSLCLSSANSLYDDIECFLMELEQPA
Technique: protein-binding microarray
Molecule type: double-stranded DNA, one strand shown
Medium: in vitro
Concentration: 2200 nM top
Notes: 60-bp whole probe
Together with: salmon DNA 0.4 mg/ml
Relative to: random background probes
Direction: higher = stronger binding
All sequences stand within: GCCTAGCAC … GTCTTGATTCGCTTGACGCTGCTG
Strand | fitted relative affinity [z-score]
TTAGCTTTCCTTATCCTTTAGTGCTAG | 2.66
TTAGGTTCCGGGTTCGGTTAGTGCTAG | 2.66
GACGGTATCGGAATCGGGACGTGCTAG | 0.246
TATTTTATATGCTATGTACTGGTGCTA | 1.3
GACTGTATCCTACTGCTGACGTGCTAG | 0.983
ATAGGACTGGGTTTCGGTTAGTGCTAG | 4.26
GCACGGCTCGTTATCCTATAGTGCTAG | 0.774
TTAGGTTTCGATTCCGGTTAGTGCTAG | 9.06

Set 4
Target: RNA binding protein fox-1 homolog 2, RRM domain, GST-SBP tag (RBFOX2, Homo sapiens, UniProt O43251-10, residues 100-194)
Technique: RNA Bind-n-Seq
Molecule type: RNA
Medium: in vitro
Concentration: 365 nM
Notes: natural RNA segment, single round, ends assumed
Relative to: no-protein control
Direction: higher = stronger binding
All sequences stand within: GGGAGUUCUACAGUCCGACGAUC … UGGAAUUCUCGGGUGCCAA
Residues (chain): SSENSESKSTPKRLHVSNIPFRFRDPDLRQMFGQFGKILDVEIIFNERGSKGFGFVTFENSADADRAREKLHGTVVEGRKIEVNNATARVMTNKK
Strand | RBNS enrichment (R)
UGGAAGUUCUGCCACUGUACUCUGGAAAUCCUGUCCUCACCUUGCCCUUCCCUGAGCAUCCGACUCUUCCAGCAACAAUUCUGUUGGAUUUAAGGCCAAGGGCCAGUGGG | 0.501
GUGUGGAUCAGAUACAUACUUGGCAAAUUUUUGAGUUUUACAUUCUUACAGAAAAGUCCAUUUAAAAGUGAUCAUUUGUAAGACCAAAAUAUAAAUAAAAAGUUUCAAAA | 0.619
ACGAAGGGAGGUCCUGCUCACUCCAUUUCUUUCGUUUGAAGCAGAAGGGAUGUGUAGCCAGGGAAGGCUCCCUUCACCAGUGUAAAGAGCUGAUACAGUACUCAGAAGAC | 0.302
AUUGAGAAUAUAAAGAACAGUGCCUUAGAAGACAGUGAAAGGUAAGCUCUAGCUUAAUGUCUAUGAUUUGUUCUUUGACAUUAAGGAAGGUAAGGAUUGGUCAGAGGAUG | 0.42
CUAAUACACUAAUAGUAAGAUUAAGUUAGGCAGUCUUCUACCAAAUGUGUAAUGGAGAUUGCCUCAAAAUUGUGUCCACAUAAUCCACGCUCAUCUUGCAAAGCGCUAUU | 0.352
GUGUAAAUGUACAUUGUAUAGGUAUUAGUGUGCUCUAGAAAGGACAGGAUGGAAGGAAUCAAAGCACUUUAUCGAGCUUGUGGCUGAGCAUUGCAGCCUAUGUGCAAACC | 2.24
GGUUACCCGAGUGAGCGGCUGCACAGUGCUCACUGAGUCCCCUCAUCUCCAGCAGUCUUGGUGCUGCUGUGCCCCGGGCUCUGGUCUGGCCGGGUGUGAGGGAAGUCAGA | 0.433
AAACUUUAUCAUAUGGCAGAAGCCUCUAUUGUGUUAAAUAAAUUAGUAUUUCAUAUAUAUACAUAUAUAUGCACCUAUAUAAUGUGUAUAUAUAUAAAAAGGCAGCCAUU | 0.755

Single results of other studies
Structure (SMILES) | target | test | system | setting | quantity | result
C[C@@H]1C[C@@H]([C@H](O)CC2CC(=O)NC(=O)C2)C(=O)[C@@H](C)C1 | Membrane-associated tyrosine- and threonine-specific cdc2-inhibitory kinase (PKMYT1, Homo sapiens, UniProt Q99640) | immunoblotting | HCC1569 | 50 µg/mL, 1 h | remaining protein level | 69.4%

Repeated from above (set 2):
Change | normalised enrichment score
K4S | 7.91
S12W | 8.27
L7N | 0.332
G2V | 7.42
G2R | 7.71
G2I | 7.09
K4T | 6.07
F8D | 0.485
